Measured values collected from several papers.
Each line is one published result; not all experiments were run side by side. ± marks the error that the study gave.
lasR: Transcriptional activator protein LasR (lasR, Pseudomonas aeruginosa, UniProt P25084)

Chains of the proteins cited; added tags and fusions are not shown. Residues count along the entry.
UniProt P25084, whole entry: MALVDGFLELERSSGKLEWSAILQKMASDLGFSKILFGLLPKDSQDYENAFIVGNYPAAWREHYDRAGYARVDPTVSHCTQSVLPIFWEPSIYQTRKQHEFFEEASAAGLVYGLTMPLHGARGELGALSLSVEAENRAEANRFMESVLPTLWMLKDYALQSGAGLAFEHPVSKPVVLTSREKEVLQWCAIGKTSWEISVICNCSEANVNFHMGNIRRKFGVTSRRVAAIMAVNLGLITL
UniProt P41145, whole entry: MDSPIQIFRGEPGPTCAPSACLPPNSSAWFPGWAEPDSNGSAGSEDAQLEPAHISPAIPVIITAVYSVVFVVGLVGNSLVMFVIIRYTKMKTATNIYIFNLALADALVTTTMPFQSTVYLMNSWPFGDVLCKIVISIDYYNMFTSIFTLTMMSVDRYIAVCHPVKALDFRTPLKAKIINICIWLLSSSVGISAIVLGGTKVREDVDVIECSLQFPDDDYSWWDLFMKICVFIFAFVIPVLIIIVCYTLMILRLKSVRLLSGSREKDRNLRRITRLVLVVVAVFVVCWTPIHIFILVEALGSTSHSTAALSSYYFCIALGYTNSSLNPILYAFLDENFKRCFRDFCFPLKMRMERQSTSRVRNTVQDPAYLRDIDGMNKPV
UniProt Q81258, 2431-3021 limits assumed: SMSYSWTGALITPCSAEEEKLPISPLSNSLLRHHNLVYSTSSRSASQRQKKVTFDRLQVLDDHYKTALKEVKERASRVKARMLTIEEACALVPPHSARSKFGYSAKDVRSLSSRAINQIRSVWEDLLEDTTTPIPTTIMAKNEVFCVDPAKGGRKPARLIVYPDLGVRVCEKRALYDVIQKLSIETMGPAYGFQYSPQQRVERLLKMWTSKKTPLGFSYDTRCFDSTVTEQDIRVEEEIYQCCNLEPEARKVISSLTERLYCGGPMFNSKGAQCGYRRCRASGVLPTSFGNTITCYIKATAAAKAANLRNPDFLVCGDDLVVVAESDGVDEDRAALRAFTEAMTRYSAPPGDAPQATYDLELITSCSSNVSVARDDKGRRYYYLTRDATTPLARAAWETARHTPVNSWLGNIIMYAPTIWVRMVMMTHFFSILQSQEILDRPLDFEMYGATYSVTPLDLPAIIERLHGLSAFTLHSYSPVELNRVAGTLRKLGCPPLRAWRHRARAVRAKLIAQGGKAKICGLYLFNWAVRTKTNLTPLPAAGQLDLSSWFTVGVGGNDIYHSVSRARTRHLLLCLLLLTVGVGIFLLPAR
UniProt P47898, whole entry: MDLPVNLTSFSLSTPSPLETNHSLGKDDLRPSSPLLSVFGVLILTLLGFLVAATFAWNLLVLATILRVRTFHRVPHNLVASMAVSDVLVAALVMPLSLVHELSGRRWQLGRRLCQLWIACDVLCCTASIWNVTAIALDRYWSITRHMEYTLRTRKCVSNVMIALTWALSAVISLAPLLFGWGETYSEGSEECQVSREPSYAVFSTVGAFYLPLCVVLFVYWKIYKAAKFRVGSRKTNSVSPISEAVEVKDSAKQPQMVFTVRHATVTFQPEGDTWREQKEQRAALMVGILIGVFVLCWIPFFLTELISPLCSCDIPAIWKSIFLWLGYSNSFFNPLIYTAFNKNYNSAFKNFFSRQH
UniProt P06802, 92-905 isoform 2 limits assumed: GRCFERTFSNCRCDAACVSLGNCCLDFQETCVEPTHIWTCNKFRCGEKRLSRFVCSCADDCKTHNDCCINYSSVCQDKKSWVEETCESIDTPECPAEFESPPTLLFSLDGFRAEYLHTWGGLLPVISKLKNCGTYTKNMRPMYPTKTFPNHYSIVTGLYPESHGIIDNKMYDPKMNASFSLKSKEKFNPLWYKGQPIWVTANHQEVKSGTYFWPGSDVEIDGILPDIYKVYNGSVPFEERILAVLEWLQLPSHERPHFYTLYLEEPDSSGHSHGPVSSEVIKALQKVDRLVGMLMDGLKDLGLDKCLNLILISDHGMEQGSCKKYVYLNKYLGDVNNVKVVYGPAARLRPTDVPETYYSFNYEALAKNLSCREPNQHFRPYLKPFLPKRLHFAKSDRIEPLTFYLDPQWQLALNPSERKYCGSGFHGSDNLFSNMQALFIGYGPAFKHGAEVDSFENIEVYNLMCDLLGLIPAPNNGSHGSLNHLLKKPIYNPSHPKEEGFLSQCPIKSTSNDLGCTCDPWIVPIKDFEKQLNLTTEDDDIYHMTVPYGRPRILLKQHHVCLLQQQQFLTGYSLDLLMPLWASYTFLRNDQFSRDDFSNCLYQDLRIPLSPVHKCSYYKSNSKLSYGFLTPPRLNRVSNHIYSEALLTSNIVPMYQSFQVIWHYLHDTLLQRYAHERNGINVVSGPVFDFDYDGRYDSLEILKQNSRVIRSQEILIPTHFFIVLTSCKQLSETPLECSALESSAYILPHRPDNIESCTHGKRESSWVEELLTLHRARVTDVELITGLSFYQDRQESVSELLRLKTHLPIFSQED
UniProt Q6XEC0, 23-265 limits assumed: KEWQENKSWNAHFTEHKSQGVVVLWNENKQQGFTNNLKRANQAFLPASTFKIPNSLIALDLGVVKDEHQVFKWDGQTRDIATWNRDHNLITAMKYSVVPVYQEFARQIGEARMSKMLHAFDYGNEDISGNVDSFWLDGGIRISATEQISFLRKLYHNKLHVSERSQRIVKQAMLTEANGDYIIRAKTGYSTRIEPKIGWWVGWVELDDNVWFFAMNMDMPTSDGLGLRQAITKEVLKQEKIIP
UniProt Q60492, whole entry: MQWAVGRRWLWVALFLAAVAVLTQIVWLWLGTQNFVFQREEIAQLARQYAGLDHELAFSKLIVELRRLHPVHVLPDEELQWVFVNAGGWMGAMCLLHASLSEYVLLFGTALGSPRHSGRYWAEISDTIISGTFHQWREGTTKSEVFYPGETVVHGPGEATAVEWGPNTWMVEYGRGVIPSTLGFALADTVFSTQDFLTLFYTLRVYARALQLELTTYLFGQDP
UniProt A0A0D5YGP3, 1-542: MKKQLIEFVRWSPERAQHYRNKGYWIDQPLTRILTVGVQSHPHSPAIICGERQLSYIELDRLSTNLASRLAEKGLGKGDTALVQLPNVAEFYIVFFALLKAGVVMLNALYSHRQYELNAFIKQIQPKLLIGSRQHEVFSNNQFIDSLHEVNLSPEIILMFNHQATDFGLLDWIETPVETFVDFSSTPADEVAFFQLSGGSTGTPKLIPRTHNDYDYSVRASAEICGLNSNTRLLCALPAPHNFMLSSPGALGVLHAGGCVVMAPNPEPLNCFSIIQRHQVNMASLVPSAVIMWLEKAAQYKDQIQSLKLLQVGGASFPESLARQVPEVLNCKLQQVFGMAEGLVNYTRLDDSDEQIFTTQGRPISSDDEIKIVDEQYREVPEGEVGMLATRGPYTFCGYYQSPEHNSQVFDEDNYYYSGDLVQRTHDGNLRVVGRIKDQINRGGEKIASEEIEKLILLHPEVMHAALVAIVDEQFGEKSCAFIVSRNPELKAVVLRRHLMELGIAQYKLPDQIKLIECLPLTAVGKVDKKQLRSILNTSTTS
UniProt P30291, whole entry: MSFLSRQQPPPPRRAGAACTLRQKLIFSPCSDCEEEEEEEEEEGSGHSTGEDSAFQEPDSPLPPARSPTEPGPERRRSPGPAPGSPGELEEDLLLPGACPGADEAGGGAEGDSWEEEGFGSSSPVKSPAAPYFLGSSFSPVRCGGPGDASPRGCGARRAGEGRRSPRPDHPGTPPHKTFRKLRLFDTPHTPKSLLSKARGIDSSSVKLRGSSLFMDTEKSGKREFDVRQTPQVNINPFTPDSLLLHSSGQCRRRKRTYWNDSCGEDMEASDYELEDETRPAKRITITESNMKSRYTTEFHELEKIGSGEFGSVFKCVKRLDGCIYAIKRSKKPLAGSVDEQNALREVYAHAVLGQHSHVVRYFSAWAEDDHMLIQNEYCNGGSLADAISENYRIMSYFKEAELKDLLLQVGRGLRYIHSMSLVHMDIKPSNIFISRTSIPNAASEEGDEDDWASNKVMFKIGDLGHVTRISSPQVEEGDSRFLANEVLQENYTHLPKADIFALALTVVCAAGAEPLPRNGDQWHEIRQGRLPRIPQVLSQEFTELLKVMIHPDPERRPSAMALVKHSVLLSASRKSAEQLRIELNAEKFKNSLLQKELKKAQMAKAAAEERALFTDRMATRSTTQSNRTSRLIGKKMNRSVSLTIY
UniProt Q96SW2, whole entry: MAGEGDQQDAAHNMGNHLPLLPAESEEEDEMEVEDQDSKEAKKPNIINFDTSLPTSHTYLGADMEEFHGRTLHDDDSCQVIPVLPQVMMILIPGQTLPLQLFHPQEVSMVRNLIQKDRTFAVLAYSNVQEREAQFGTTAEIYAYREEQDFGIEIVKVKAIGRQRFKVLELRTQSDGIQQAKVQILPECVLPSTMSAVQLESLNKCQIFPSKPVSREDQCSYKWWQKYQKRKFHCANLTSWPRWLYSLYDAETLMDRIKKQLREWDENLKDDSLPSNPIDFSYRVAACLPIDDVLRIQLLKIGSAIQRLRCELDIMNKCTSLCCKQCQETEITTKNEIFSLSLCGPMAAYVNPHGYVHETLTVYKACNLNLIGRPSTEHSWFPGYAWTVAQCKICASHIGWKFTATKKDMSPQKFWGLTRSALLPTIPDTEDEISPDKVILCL
UniProt P42264, 32-919 limits assumed: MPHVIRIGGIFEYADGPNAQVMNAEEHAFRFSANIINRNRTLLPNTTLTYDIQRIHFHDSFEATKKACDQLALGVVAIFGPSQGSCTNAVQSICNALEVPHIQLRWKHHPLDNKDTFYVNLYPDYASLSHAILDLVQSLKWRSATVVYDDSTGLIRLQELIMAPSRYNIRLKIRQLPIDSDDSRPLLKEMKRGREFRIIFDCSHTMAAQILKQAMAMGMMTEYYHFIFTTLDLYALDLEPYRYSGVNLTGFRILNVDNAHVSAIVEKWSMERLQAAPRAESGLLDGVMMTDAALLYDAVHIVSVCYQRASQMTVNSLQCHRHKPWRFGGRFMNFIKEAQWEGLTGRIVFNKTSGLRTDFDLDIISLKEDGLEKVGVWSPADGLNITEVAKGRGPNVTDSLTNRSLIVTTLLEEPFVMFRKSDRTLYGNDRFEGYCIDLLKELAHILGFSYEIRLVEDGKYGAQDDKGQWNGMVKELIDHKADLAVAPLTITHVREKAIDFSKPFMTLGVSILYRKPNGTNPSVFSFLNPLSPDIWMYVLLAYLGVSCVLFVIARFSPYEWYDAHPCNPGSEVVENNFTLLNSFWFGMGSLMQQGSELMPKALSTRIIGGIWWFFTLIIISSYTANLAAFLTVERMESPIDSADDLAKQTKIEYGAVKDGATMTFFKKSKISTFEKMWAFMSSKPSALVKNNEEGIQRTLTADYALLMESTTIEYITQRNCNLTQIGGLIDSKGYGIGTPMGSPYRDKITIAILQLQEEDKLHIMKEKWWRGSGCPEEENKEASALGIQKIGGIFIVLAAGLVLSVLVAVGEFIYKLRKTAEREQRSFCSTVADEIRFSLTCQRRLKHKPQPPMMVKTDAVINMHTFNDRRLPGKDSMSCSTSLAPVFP
UniProt Q16531, whole entry partner: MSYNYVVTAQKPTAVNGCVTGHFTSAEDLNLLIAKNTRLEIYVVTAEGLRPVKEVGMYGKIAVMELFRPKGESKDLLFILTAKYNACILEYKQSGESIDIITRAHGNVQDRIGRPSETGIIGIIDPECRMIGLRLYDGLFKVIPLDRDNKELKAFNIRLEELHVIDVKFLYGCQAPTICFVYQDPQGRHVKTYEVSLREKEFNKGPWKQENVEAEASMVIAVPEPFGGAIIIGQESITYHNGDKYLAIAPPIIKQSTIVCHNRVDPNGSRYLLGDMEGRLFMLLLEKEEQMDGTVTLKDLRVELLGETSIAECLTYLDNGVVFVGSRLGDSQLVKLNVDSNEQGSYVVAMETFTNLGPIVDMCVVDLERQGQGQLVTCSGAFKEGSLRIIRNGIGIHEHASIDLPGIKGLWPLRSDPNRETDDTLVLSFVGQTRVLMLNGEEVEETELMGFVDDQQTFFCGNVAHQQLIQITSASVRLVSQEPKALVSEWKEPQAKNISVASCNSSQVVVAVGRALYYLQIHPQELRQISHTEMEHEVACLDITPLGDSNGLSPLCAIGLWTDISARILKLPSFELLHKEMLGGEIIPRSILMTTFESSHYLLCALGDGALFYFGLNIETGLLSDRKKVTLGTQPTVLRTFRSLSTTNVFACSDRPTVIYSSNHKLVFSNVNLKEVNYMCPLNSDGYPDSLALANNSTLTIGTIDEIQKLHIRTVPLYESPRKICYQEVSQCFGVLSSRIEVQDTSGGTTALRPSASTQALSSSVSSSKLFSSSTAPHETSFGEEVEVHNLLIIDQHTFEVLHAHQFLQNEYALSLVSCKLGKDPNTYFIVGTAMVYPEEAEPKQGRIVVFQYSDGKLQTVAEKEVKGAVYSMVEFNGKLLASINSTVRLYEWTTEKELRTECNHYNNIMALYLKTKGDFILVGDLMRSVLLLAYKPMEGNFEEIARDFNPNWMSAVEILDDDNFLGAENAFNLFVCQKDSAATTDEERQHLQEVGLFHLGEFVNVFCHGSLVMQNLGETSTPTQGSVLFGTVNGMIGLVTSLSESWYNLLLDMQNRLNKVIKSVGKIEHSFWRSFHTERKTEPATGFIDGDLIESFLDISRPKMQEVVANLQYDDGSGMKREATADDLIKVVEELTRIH

| SMILES | target or system | assay | system | conditions | measurement | value |
| --- | --- | --- | --- | --- | --- | --- |
| NCCNCCSc1ccccc1 | – | – | mouse blood | 100 µg/mL, 30 min, 37 °C | plasma concentration | 36300 ± 2510 ng/mL |
| CCCCCCCCCCCCNC(=O)N[C@H](C(=O)N[C@H]1/C=C/CCNC(=O)/C=C/[C@H](C)NC1=O)C(C)C | Proteasome Macropain subunit MB1 (PSMB5, Homo sapiens, UniProt P28074) | chymotrypsin-like activity, inhibitor, Proteasome-Glo | U-266 | 24 h | Ki | 54.6 ± 10.4 nM |
| CC(CCN[C@H](CN[C@H](CO)CN1CCC[C@H]1CN[C@H](CN)c1ccccc1)c1ccccc1)c1ccccc1 (stereo partly shown) | Escherichia coli | bacterial growth | – | 24 µM, fold shift of IC90, together with: amikacin | potentiation of amikacin | 3.7 fold |
| COCOc1ccc(C(=O)OC2=C[C@@H](C(=O)OC)[C@]3(C)CC[C@H]4C(=O)O[C@H](c5ccoc5)C[C@]4(C)[C@H]3C2=O)cc1F | Kappa-type opioid receptor (OPRK1, Homo sapiens, UniProt P41145) | agonist | – | – | EC50 | > 10000 nM |
| O=c1ccn([C@@H]2O[C@H](COP(=O)(O)OP(=O)(O)OP(=O)(O)O)[C@@H](O)[C@]2(F)Br)c(=O)[nH]1 | Genome polyprotein, NS5B polymerase (Hepatitis C virus genotype 3a, UniProt Q81258) | polymerase activity, inhibitor | Hepatitis C virus, genotype 3a | – | IC50 | 1800 nM |
| COc1ccc(C(=O)Oc2c(Br)cc(Br)cc2CNC(=O)c2ccccc2[N+](=O)[O-])cc1 | lasR | reporter gene, agonist | Escherichia coli JLD271 lasI-lacZ reporter | – | EC50 | 9.2 nM |
| COc1ccc(CN[C@@H]2CO[C@H](C(c3ccccc3)c3ccccc3)C[C@H]2O)cc1 | 5-hydroxytryptamine receptor 5A (HTR5A, Homo sapiens, UniProt P47898) | radioligand binding | – | 10 µM, together with: [3H]LSD | inhibition | 22.5% |
| COc1cc2ncnc(NCc3ccc(CP(=O)(O)O)cc3)c2cc1OC | Ectonucleotide pyrophosphatase/phosphodiesterase family member 1 (Enpp1, Mus musculus, UniProt P06802) | enzyme activity, inhibitor, coupled luciferase AMP detection | – | pH 7.4, together with: cGAMP 5 µM | Ki | 26 nM |
| O=C(Oc1c(Br)cc(Br)cc1CNC(=O)c1ccccc1[N+](=O)[O-])c1ccc(Cl)cc1 | lasR | reporter gene, agonist | Escherichia coli JLD271 lasI-lacZ reporter | – | EC50 | 2.09 nM |
| C[C@H](CS)C(=O)N[C@@H](Cc1c[nH]c2ccccc12)C(=O)O | Klebsiella pneumoniae | – | VIM-1 producing | 50 µM, together with: meropenem | MIC of meropenem | 16 µg/mL |
| Nc1cc(S(=O)(=O)O)cc2cc(S(=O)(=O)O)cc(O)c12 | Beta-lactamase OXA-48 (OXA-48, Klebsiella pneumoniae, UniProt Q6XEC0) | enzyme activity, inhibitor | – | – | Ki | 4.1 µg/mL |
| O[C@H](c1ccc(F)cc1)C(F)(F)CCN1CCC(O)(c2ccc(Cl)cc2)CC1 (racemic) | Sigma non-opioid intracellular receptor 1 (SIGMAR1, Cavia porcellus, UniProt Q60492) | – | – | – | Ki | 5.3 ± 0.6 nM |
| NC[C@@H](NC[C@@H]1CCCN1C[C@@H](CO)NC[C@@H](NCCC12CC3CC(CC(C3)C1)C2)c1ccccc1)c1ccccc1 | Klebsiella pneumoniae | bacterial growth | – | 8 µM, fold shift of IC90, together with: amikacin | potentiation of amikacin | 1.1 fold |
| O=C(NS(=O)(=O)OC[C@H]1O[C@@H](n2cnc3c(NCc4ccccc4)ncnc32)[C@H](O)[C@@H]1O)c1ccccc1O | 2,3-dihydroxybenzoate-AMP ligase BasE (Acinetobacter baumannii, UniProt A0A0D5YGP3) | binding | – | – | Kd | 87.6 ± 18.2 nM |
| CN1C(=O)CCC(N2Cc3cc(-c4nc5ccccn5c4NC(C)(C)C)ccc3C2=O)C1=O (stereo not shown) | WEE1/CRBN (Homo sapiens, UniProt P30291+Q96SW2) | degrader, HiBiT luciferase | Jurkat (HiBiT-tagged) | 5 h | DC50 | > 10000 nM |
| O=C(O)C(Cc1nn[nH]n1)[C@@H]1CCN[C@H]1C(=O)O (relative stereo) | Glutamate receptor ionotropic, kainate 3 (Rattus norvegicus, UniProt P42264) | binding | Sf9 cells | cloned homomeric receptor, together with: [3H]kainate | Ki | 4900 ± 500 nM |

A few entries again:
| SMILES | target or system | assay | system | conditions | measurement | value |
| --- | --- | --- | --- | --- | --- | --- |
| O=C(O)C(Cc1nn[nH]n1)[C@@H]1CCN[C@H]1C(=O)O (relative stereo) | Glutamate receptor ionotropic, kainate 3 (Rattus norvegicus, UniProt P42264) | binding | Sf9 cells | cloned homomeric receptor, together with: [3H]kainate | Ki | 4900 ± 500 nM |
